Results pooled from the literature.
A part holds a random share of what one study measured. Substitutions count along the parent as printed.
Chain of UniProt Q15418 (whole entry, looked up): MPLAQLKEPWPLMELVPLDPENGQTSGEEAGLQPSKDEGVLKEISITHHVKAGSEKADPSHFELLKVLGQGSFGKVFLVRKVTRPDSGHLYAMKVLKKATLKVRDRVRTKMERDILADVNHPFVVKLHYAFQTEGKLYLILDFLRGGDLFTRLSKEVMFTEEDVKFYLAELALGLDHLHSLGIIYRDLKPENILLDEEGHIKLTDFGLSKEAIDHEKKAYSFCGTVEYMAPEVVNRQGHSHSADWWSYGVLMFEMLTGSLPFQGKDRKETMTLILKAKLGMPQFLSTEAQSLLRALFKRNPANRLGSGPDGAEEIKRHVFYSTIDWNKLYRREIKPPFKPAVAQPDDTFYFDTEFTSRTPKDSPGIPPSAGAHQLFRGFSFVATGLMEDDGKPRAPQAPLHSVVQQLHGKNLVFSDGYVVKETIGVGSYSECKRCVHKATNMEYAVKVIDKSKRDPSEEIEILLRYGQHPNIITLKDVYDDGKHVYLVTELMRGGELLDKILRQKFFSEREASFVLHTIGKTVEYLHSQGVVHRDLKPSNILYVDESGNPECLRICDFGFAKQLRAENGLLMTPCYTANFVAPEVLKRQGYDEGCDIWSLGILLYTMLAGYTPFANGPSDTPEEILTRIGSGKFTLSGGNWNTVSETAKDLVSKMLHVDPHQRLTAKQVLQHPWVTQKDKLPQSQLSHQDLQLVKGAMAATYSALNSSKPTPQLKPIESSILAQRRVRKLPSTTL
Chain of UniProt Q02779 (whole entry, looked up): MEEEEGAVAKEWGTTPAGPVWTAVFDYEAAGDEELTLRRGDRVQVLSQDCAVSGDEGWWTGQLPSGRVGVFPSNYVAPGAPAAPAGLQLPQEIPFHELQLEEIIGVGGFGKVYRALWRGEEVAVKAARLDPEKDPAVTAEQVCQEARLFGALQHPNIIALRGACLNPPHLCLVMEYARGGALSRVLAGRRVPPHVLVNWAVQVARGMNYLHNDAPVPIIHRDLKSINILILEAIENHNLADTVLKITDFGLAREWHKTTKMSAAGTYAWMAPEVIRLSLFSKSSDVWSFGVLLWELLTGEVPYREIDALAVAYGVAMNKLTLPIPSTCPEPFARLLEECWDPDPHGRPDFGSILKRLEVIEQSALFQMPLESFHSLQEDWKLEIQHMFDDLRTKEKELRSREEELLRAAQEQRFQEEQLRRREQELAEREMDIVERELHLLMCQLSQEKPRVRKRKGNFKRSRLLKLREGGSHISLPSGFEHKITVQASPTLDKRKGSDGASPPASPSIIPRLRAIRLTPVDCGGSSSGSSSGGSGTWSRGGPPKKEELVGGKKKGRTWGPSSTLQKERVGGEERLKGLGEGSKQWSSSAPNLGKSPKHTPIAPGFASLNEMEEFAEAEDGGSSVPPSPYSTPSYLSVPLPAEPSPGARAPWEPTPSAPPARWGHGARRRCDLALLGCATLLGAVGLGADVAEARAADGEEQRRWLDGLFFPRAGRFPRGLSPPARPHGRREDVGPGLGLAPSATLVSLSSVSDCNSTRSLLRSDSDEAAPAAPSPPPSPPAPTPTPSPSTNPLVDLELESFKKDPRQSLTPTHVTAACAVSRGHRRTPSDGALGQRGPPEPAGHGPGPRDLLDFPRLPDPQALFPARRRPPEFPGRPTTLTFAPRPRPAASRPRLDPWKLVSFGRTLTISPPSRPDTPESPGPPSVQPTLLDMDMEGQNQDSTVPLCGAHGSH
Chain of UniProt Q9Y243 (whole entry, looked up): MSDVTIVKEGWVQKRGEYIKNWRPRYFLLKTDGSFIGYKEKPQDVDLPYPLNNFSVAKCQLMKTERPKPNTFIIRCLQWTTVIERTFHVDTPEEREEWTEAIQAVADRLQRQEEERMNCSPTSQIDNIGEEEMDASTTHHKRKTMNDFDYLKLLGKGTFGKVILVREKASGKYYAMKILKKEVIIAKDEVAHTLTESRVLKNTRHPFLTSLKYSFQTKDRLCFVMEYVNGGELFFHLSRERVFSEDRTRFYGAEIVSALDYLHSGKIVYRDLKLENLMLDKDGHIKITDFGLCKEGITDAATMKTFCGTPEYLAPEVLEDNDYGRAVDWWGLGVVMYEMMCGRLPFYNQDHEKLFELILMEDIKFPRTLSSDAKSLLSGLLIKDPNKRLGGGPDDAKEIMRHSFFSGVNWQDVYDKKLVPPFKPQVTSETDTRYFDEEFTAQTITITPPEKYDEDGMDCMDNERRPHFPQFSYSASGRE
Chain of UniProt P23443 (whole entry, looked up): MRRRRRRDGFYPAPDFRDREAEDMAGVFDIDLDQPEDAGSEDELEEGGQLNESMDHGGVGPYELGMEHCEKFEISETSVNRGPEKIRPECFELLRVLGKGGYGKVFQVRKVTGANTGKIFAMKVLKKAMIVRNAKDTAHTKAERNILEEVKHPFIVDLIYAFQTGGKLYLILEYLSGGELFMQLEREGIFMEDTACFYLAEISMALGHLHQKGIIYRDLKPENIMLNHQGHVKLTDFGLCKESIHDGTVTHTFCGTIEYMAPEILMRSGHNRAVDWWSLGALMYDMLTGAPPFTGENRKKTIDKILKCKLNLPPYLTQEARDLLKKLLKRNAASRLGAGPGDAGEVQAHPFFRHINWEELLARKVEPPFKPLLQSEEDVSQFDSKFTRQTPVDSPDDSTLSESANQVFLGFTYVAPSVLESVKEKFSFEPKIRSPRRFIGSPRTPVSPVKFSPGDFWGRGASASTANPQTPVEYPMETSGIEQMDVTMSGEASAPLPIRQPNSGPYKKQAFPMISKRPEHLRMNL
Chain of UniProt P49761 (whole entry, looked up): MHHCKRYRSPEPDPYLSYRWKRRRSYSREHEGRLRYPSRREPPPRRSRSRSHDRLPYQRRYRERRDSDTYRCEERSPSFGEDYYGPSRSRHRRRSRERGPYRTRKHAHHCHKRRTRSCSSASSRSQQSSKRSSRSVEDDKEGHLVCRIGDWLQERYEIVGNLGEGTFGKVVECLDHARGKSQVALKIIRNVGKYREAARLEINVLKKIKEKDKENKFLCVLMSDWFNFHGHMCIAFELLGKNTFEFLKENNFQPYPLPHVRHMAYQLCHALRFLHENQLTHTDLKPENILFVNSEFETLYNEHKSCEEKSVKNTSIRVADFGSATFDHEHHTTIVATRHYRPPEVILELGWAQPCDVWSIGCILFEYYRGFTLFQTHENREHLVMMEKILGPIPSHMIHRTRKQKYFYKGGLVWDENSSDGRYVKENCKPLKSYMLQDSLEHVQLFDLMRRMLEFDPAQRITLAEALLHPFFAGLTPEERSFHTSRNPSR

Set 1
Target: Sal-like protein 4, full length isoform B (SALL4, Homo sapiens, UniProt Q9UJQ4-2, residues 1-616)
Method: universal PBM
Molecule type: double-stranded DNA, one strand shown
Sample: in vitro
Concentration: not given
Notes: 8-mer, flanks averaged, mean of replicates
Reading: higher = stronger binding
Oligonucleotide	E-score
AGTAGTAT	0.181
CTTAAACC	-0.0665
CTCCAGCC	-0.339
CAACCCGC	-0.223
GCACGCAA	-0.225
AACGAGGT	-0.142
AATCCTGA	0.122
CACTAACA	0.0813

Set 2
Target: Casein kinase I isoform gamma-2 (CSNK1G2, Homo sapiens, UniProt P78368)
Chain of UniProt P78368 (whole entry, looked up): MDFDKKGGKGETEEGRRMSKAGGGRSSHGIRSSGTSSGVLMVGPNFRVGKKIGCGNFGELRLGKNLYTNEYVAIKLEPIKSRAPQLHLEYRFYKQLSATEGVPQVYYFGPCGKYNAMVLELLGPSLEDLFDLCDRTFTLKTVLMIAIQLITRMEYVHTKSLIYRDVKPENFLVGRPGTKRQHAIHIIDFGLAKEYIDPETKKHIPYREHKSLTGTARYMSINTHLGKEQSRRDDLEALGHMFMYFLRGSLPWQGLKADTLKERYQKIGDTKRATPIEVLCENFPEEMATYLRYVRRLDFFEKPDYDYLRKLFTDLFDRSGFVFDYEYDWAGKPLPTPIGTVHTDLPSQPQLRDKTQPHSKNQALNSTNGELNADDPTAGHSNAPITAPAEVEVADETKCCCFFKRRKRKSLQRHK
Observed: enzyme activity
Mode: inhibitor
Concentration: 0.5 µM
Baseline: control
Structure (SMILES)	remaining activity [%]
Cc1nc(-c2ccccc2)c(-c2ccncc2)o1	92.2
O=C1NC(=O)C(c2cn(CCCO)c3ncccc23)=C1c1cnccn1	66
Nc1ncnc2n[nH]c(Nc3ccc(F)cc3)c12	95.7
O=C1NC(=O)C(c2cn(CCCn3ccnc3)c3ccccc23)=C1Nc1ccccc1	95.4
Nc1ccc2ncnc(NCCc3ccc(Oc4ccccc4)cc3)c2c1	100
CCOC(=O)c1c(C)[nH]c(/C=C2\C(=O)Nc3ccccc32)c1C	84.8
O=S(=O)(c1cccc2cnccc12)N1CCCNCC1	93.7
O=C(Nc1cccc(Nc2cc(Nc3cccc(C(F)(F)F)c3)ncn2)c1)C1CC1	99.1
CN(C)c1ccc(C=C2C(=O)Nc3ccccc32)cc1	96.7
O=C(O)c1ccc2c3c1cccc3c(=O)n1c3ccccc3nc21	93.5
Cc1ccc(NC(=O)c2ccc(CN3CCN(C)CC3)cc2)cc1Nc1nc(-c2cccnc2)cs1	92.9
OCC(O)CCON=C1C(c2c(O)[nH]c3ccccc23)=Nc2ccccc21 (centres unmarked)	85.2
COc1cc2nccc(Oc3ccc(NC(=S)NC(=O)c4ccccc4C)cc3)c2cc1OC	106

Set 3
SMILES: CC(=O)Nc1c(C(C)=O)c(=O)n(C)c2nc(-c3ccc(Cl)cc3Cl)c(-c3ccc(Cl)cc3)cc12
Method: competition with immobilised ligand
Concentration: 1 µM
target	observed	remaining binding
Dual specificity protein kinase CLK3 (CLK3, Homo sapiens, UniProt P49761)	cell-free assay	100%
Dual specificity tyrosine-phosphorylation-regulated kinase 1B (DYRK1B, Homo sapiens, UniProt Q9Y463)	binding	35%
Ribosomal protein S6 kinase alpha-1, N-terminal kinase domain (RPS6KA1, Homo sapiens, UniProt Q15418)	cell-free assay	100%
Ribosomal protein S6 kinase beta-1 (RPS6KB1, Homo sapiens, UniProt P23443)	cell-free assay	95%
RAC-gamma serine/threonine-protein kinase (AKT3, Homo sapiens, UniProt Q9Y243)	cell-free assay	100%
Mitogen-activated protein kinase kinase kinase 10 (MAP3K10, Homo sapiens, UniProt Q02779)	cell-free assay	100%

Set 4
Target: CCNA1, cyclin fold, Cln2 fusion (human)
Method: yeast growth competition, sequencing
Sample: yeast
Notes: weak parent motif
Baseline: not given
Reading: higher = stronger binding
Starting sequence: WEE1 docking peptide (human); HKTFRKLRLFDTP
Substitution	normalised enrichment score
R5K	-0.0847
L7K	0.382
D11V	0.0023
D11A	0.192
K6F	-0.312
R5D	0.0879
F4P	0.54
R8H	0.125

A few entries again (set 2):
Structure (SMILES)	remaining activity [%]
O=C(Nc1cccc(Nc2cc(Nc3cccc(C(F)(F)F)c3)ncn2)c1)C1CC1	99.1
CN(C)c1ccc(C=C2C(=O)Nc3ccccc32)cc1	96.7
O=C(O)c1ccc2c3c1cccc3c(=O)n1c3ccccc3nc21	93.5
Cc1ccc(NC(=O)c2ccc(CN3CCN(C)CC3)cc2)cc1Nc1nc(-c2cccnc2)cs1	92.9
OCC(O)CCON=C1C(c2c(O)[nH]c3ccccc23)=Nc2ccccc21 (centres unmarked)	85.2
COc1cc2nccc(Oc3ccc(NC(=S)NC(=O)c4ccccc4C)cc3)c2cc1OC	106
